Measurements from different studies.
A part holds a random share of what one study measured.

Set 1
Target: PABPC1L2, full length, GST fusion (mouse, UniProt A0ABA7IW68)
Method: RNAcompete
Molecule type: RNA
Medium: in vitro
Tested at: 20 nM
Notes: 7-mer, probes averaged, single round
Relative to: mean of 7-mers
Direction: higher = stronger binding
Endpoint: 7-mer Z-score
Residues (chain): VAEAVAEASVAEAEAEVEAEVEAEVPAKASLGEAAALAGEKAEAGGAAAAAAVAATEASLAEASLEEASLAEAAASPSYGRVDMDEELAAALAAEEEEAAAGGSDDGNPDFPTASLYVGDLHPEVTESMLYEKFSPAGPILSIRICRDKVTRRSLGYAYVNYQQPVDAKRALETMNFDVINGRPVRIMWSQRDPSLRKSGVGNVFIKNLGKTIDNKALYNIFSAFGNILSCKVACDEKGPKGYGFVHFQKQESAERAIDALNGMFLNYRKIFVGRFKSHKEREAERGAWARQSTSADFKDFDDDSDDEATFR
AUUCCAU: -0.197
GUUCCGU: -0.405
GCGAACA: 0.216
UUCGCGC: -0.431
GUUAAUA: 0.00979
CGAGAGA: 0.171
GCCGAUG: -0.13
GGCAUGG: 0.204
CGGAGGA: 0.294
CCAAGAG: -0.0663
UCGGUAU: -0.251
AGACCGG: -0.28
CGCGCUC: -0.315
GGGGUCU: 0.206
GUCUGGU: -0.237
UGCGGUU: -0.179
GAGACGU: -0.171
CUCUGGG: -0.0989
ACACUGC: -0.148
UGCCGUU: -0.373
AUGGAAG: 0.16
UGGAACC: 0.075
AUACCAA: 0.135
UAAGUUA: -0.148
CACGAAC: -0.00833

Set 2
Target: RNA binding protein fox-1 homolog 2, RRM domain, GST-SBP tag (RBFOX2, Homo sapiens, UniProt O43251-10, residues 100-194)
Method: RNA Bind-n-Seq
Molecule type: RNA
Medium: in vitro
Tested at: 365 nM
Notes: natural RNA segment, single round, ends assumed
Relative to: no-protein control
Direction: higher = stronger binding
Endpoint: RBNS enrichment (R)
Target sequence (chain): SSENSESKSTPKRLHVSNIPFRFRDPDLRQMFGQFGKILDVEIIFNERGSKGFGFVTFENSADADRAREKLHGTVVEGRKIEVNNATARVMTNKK
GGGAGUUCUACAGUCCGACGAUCGGAGCCUUAUUCUGUACCCCACUUUCCUCUUUUUAAUGGUACACGGUGGUGAUAUUUUUCAUCCCCAACCCAUUGGACUCCAUCAUAUAAUCAUGAGUCAUGCAGAGCCAUGGAAUUCUCGGGUGCCAA: 0.448
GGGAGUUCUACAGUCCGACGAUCUCAGGAAACACAGACCUUAGCGAUUCUCCAUAAAAUGGCAGCCCAAUGAAAAUAAACUUGACAACUAAUUUUCAUGAAGGCUUGUGUCUUCUUUUAAAGUUAUACUUGUUUGGAAUUCUCGGGUGCCAA: 0.241
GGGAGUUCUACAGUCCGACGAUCAUUGCUGUUAGAAUAGUGUUGUAUCAGGUAUGUGACCAUUUCAGAAGGCUGAACUUACAUAGAGGUUUUACUCAGCAAUACUUAGAUGUCUAACAGUUUAAUUGCUCCAGUGGAAUUCUCGGGUGCCAA: 0.563
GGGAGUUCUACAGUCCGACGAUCGCGAAGUCUAAAACCGGUCUCUUUUUUAUUUGUUACUUGGAUGAGAGCACCUGAAGACUAAUGUUUUACACUGGAUUGAGAUCUCAUGGAAAAUGAAACAUUCUUUUUCUUGGAAUUCUCGGGUGCCAA: 0.885
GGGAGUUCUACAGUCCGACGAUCCCCUUGAAAUCCUAAUCUAAGACACUGCUUGAGUCCAAGGCAACCCUCAAUGAGACUAAGACUUGUGUUGGCUUUUUAAUAUCCUAGUUAGAGAGAAAUUGUAGCACAUUUGGAAUUCUCGGGUGCCAA: 0.752
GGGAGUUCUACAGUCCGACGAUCAAUAAAAUUUACUUCUGAUGUUUUAAUUAAAAUGUUUGCCACAUUAACUUUUCUGAUGCCUUAAAAGUGAACUUCUUUAAAGAACCUUUGUGCUAUUUUAUCACAGGCUUUGGAAUUCUCGGGUGCCAA: 0.427
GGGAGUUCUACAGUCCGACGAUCAAUGGCUGUAAGUUAUGAUAAGGAAAUGUACUGAUUGCCAGUGCACUCCACCCUCAUUACGUCACCAGGACUUGAAGCCAAGGGUUAAGAGGGCAAGCUAUGACAUGGGUUGGAAUUCUCGGGUGCCAA: 0.343
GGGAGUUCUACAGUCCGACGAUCCUCCCCUGCUCACUCCAGUCACAUAGAGAAUUGGUGUUUCCCGCAGUGGGGAUGCAGCUGUUGGACAGGUAUUGGGGGCAAGGUUGGUAGGGAGGACAGACUGUCACUUGUGGAAUUCUCGGGUGCCAA: 0.248
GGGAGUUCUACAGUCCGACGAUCCCAUCUUCCAUGACUGCUUCUAUUCCUGCCUUCCAUGGCAGUGUCCACAGGAGAUAGGCAAGAAGAUUGGAGCAGCUUUCUCACAGGUCUGCAAUUUGGAUUUUCUCCAAUGGAAUUCUCGGGUGCCAA: 0.311

Set 3
Target: RING finger protein unkempt homolog, zinc fingers 1-6, GST-SBP tag (UNK, Homo sapiens, UniProt Q9C0B0, residues 30-357)
Method: RNA Bind-n-Seq
Molecule type: RNA
Medium: in vitro
Tested at: not given
Notes: RNA with constant flanks, ends assumed
Relative to: input RNA pool
Direction: higher = stronger binding
Endpoint: bound/input enrichment
Construct (chain): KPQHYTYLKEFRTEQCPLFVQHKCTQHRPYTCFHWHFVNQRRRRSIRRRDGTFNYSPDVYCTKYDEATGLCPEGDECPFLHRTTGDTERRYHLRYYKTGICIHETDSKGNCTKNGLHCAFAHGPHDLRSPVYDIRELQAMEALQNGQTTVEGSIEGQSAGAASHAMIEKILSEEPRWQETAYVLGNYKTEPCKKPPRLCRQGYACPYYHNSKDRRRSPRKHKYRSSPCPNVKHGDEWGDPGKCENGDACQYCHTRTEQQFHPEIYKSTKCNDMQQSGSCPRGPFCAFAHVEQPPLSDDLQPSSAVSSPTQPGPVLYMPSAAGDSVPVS
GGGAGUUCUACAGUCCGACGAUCCCCGCGCCGCCUCCUCCCACCCUGAGCAGAGCCACCGAGGAUGAUAAACACCCAGGACAGCCGUAUUUUGCCGUUGAGUAAGUGUCCCCAGCUCCAGUGCUGCAGGCACAUUGUUCCAGGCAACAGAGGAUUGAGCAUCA: 0.184 ratio
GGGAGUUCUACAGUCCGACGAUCUUCUUAAUUUUUCUUUCUUACAAAAACUGAUUUUUCCCAUAAAUAUUUUUACUUCAGAGGACCCGGACCAUUUUGUUUUGGGCCCUUCUGCUGAAAAUUUGUCUCGUUUAAGAGGCAGCUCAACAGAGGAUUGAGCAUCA: 2.31 ratio
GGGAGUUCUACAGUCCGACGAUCCAAAUCCUAGAGAGCCUUUCCACGUCUCCUCUGGCCGAGCCCCCCCACUUUGUUGAACAUAUCCGAUCUACCUUGAUGUUUUUAAAAAAAUUCCCAUCUCCAGAGAAUAUACUCUUUCCUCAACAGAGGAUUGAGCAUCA: 1.05 ratio
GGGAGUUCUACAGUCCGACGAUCCAAGGUGGUUUCAGAGAAGUGCGGAAUGAGUAUGGCUCAAGAAUAGGAGGCAAUGAAGGGACCGAUGUCCCAAUUCCAAGAUUUGCUGUUGGCAUUGUAAUAGGAAGAAAUGGAGAAAUGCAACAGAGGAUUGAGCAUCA: 2.28 ratio
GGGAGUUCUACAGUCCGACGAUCUAUGUCGAGUUUCUCUAGGGCGCCCCAGCAAUGGGCCACUUUUGCUAGAAUAUGGUAUCUCUCCGAUGGGAAAAUGCAGCCACCUGGCAAACUUGCUGCUAUGGCAUCUAUAAGACUUCACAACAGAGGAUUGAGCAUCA: 0.637 ratio
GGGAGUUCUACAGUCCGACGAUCUACGAGCGGGGUGUCGCAGUCUUGUGCACAGAGUAAACUUUUCUAGCUGCCCCUUUCUGUAACCGUGAAAGUUGGUAUUUAACAUUUAUUCAUUUUUAAAAUAUUUGGAAGGUCUGAGCUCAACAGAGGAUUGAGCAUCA: 8.45 ratio
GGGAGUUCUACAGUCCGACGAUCCAUUGUGGAAUUCCCUAGCAAUUUAUUUAGACUUAAUUUUUUAAAUUCAAGCUUACUGUAUCCGUCAUUUUUAGCCCAUAAUUAAAACAUGAUCACUUUUACACAGGUGUAGUAUGGUGCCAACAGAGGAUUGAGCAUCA: 484 ratio
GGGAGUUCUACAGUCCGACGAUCGACAUUAAAAAUUUUCUGUAUGCCUGGUGUGGCAAAAGGAAGAUGACUCCAGCCUAUGAAAUCCGAGCAGUAGGAAACAAAAACAGACAGAAAUUCAUGUGUGAGGUUCGAGUAGAAGGGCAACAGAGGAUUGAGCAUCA: 0.602 ratio
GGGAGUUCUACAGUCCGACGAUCGGAAAUUCAGGUAACUUGAAAAGCUCAGACAGAAAUCCUCCACUCAGUCCUCAGUCCUCUACCGACCGUGAGUUAAGUGCUUCAGAAUUAGAUGAAGAUUCAAUUGGAUCCAAUUAUAAGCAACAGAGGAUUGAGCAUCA: 0.862 ratio
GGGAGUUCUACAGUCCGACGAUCCCCUCCCCGGGCCACCCACCCCUCCCGGCUCCCCGCCGAGAUCCAGGUUUCUUCUUAUUUCACCGCAAAUAAGAAAAAUGUUCUACGCACAUUUUGUCCUCAGUAAACGAGGGCCUCUGGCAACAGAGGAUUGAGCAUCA: 1.74 ratio
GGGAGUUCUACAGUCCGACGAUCGAUUCUUAUAUCAAAGCAGAUGAUCCUUCCUCCUACAUGGAAGUUGUUCAGGCUGCCAAUACCCGUGGAAACUGGGAAGAACUGGUGAAGUACUUGCAGAUGGCCCGUAAGAAGGCUCGACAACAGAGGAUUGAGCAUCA: 0.0735 ratio

Set 4
Target: Prothrombin, mature alpha-thrombin (F2, Homo sapiens, UniProt P00734)
Method: aptamer microarray, sandwich
Molecule type: DNA with 2'F-ANA
Medium: in vitro
Tested at: 200 nM
Notes: whole 15-mer aptamer, many near background
Added: Cy3 exosite-II aptamer, 400 nM
Direction: higher = stronger binding
Endpoint: mean fluorescence intensity
Oligonucleotide: GGTTGGTGTGGTTGG
2'F-ANA at 2 3 4 10 11 13 14 15: 166 a.u.
2'F-ANA at 2 3 5 6 14: 48.4 a.u.
2'F-ANA at 1 3 6 10 11 13: 71.6 a.u.
2'F-ANA at 2 3 6 9 10 12 13 15: 348 a.u.
2'F-ANA at 1 3 4 5 6 8 10 11 13 15: 55.3 a.u.
2'F-ANA at 2 4 9 10 11 12 13 14: 65.5 a.u.
2'F-ANA at 3 10 11 12: 648 a.u.
2'F-ANA at 1 6 11 12 14: 68.5 a.u.
2'F-ANA at 2 3 6 7 8 12 14: 444 a.u.
2'F-ANA at 1 2 9 15: 169 a.u.
2'F-ANA at 1 8 9 10 12: 78.7 a.u.
2'F-ANA at 2 5 7 8 9: 86.4 a.u.
2'F-ANA at 1 4 5 6 10 11 12 13 15: 50.7 a.u.
2'F-ANA at 1 2 4 5 6 8 9 10 11 12 14 15: 48.8 a.u.
2'F-ANA at 4 5 6 8 9 12 15: 139 a.u.
2'F-ANA at 1 2 3 4 5 6 7 8 9 10 11: 82 a.u.
2'F-ANA at 2 6 10 11 12 13 15: 140 a.u.
2'F-ANA at 1 3 4 6 7 9 11: 137 a.u.
2'F-ANA at 1 4 5 7 11 14 15: 72.9 a.u.
2'F-ANA at 1 3 5 6 9 11 14 15: 46.9 a.u.
2'F-ANA at 1 3 4 7 9 10 13 14 15: 60.7 a.u.
2'F-ANA at 2 5 6 7 8 9 12 14: 66.4 a.u.
